Results pooled from the literature.
Each numbered part is a random draw from the data of one study; scales do not carry over between parts. Positions count from the first letter of the parent shown.

Block 1 — method: protein-binding microarray; form: double-stranded DNA, one strand shown; medium: in vitro; tested at: 250 nM; setting: 60-bp whole probe; with: salmon DNA 0.4 mg/ml; reference: random background probes; direction: higher = stronger binding; endpoint: log fluorescence; all sequences stand within: GCCTAGCAC … GTCTTGATTCGCTTGACGCTGCTG
Target: Interferon regulatory factor 5, full length, phosphomimetic (IRF5, Homo sapiens, UniProt Q13568-2, residues 1-514, K96S/S451D/S453D/S456D/S462D)
GTGTATATATAATATATATTCGTGCTA: 1.01 z-score
TTAGGGCTGGGGTATCGGTTAGTGCTA: 1.99 z-score
TCAACTTTAAATTAGACACTGTGCTAG: 0.311 z-score
CACGAACTGGGGACTGGAGACGTGCTA: -0.698 z-score
TCACTTTTTAAGATCTGACTGTGCTAG: 0.674 z-score
GGATGACTCCCTCTCTGGCCGTGCTAG: -0.376 z-score
GACGGTTTCCTGATCCTGACGTGCTAG: 0.111 z-score
TCATATGTGACCTTTTTAACTGTGCTA: 0.309 z-score
AGTATGTTCCCTATTTAAGAGTGCTAG: 0.58 z-score
TCATTTCTCAGTTTATTACTGTGCTAG: 1.26 z-score
TTAGGACTGGACTATCGGTGAGTGCTA: 2.72 z-score
CTAGTTTTTACTTTCTGAATGTGCTAG: 3.68 z-score
TTAGATATCAGTCTCGATTGGTGCTAG: 1.87 z-score
GACGGTATCGGTATCGGGAGGTGCTAG: 6.25 z-score
GACGGTTTCCTACTGCAGACGTGCTAG: 0.452 z-score
TTAGAACTGATTTTCGATTAGTGCTAG: 6.37 z-score
TTAGGATTGGGGTATCGGTTAGTGCTA: 2.62 z-score
TTAGGACTGGACTTTAGGTTAGTGCTA: -0.0998 z-score
GACGGTCTCGGTTACGGGACGTGCTAG: 0.186 z-score
GACGGTTTCGACACAGGGGACGTGCTA: 5.21 z-score
TCATGCTTGTGTCTGGGACTGTGCTAG: -0.414 z-score
GACGGTTCCCTTTTCCTGTCGTGCTAG: 0.773 z-score
TCAATTCCCTTTCTCAAACTGTGCTAG: 0.908 z-score
GACGGTTCCCTTTTCCAGACGTGCTAG: 0.345 z-score
GACAGTCTCCTACTGCTGACGTGCTAG: -0.251 z-score

Block 2 — method: RNA Bind-n-Seq; form: RNA; medium: in vitro; tested at: not given; setting: RNA with constant flanks, ends assumed; reference: input RNA pool; direction: higher = stronger binding; endpoint: bound/input enrichment
Target: RING finger protein unkempt homolog, zinc fingers 1-6, GST-SBP tag (UNK, Homo sapiens, UniProt Q9C0B0, residues 30-357)
Sequence of UniProt Q9C0B0 (30-357, looked up): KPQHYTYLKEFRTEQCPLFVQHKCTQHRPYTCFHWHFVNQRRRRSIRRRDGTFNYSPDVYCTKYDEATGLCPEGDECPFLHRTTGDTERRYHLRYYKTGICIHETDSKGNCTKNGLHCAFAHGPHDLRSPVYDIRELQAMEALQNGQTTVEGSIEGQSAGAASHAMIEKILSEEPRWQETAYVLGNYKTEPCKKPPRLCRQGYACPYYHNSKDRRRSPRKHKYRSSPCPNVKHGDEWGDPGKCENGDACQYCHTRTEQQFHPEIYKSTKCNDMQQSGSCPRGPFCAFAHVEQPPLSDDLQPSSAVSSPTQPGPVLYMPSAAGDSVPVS
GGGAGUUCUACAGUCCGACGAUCUGAUAAAGCCUUGACUAUGCAUGCUGCUUUCAUUUUGAUAAACUUUUUAUUUUUUAACUACCGCUUUAUUAGCAAUUCCCAAAUGCUGCAAUUUGCUGAUUUCUUCACACAGACAGCUGGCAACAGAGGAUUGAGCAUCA: 1.06 ratio
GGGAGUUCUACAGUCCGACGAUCUGGAUCCAUCGAUGCUGUUCCUGUUGAUGAAAACCUGUUCACUGGCGAAGAUCUGGAUGAACCCGAAGAGGAAUUGAACACUCUUGACUUAGAAGAAUGAUGAGGAUGAAAACUAGGUCACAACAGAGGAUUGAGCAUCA: 0.405 ratio
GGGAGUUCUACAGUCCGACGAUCUGGUCUUCAGAGAGCAACUAUCCUCCCCAGUACUUGAUUCUAAAGCUCGAAAGGCCUGCUACCGUUCAGAAUAUCACAUUUGGAAAAUAUGAGAAAACUCAUGUUUGCAAUUUGAAGAAACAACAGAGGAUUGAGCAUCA: 0.11 ratio
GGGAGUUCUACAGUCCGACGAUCAACAUUAGAAGACAGUGGGAAGAUGAUCCUCCAAAUGUACACAUUAUUGGAAAUCUACCUUUCCGUGUUUCAACUCCACUGAUUAUCAAGUGGCUUGAAAAUAUUUCUCUUAAAGAUGGCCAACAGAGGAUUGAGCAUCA: 0.133 ratio
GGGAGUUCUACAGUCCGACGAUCAAGAAGUGCAAACAGGACAAUAGGAAGGAGGAGCAGGCAGCUUCCCCUGUUGCAGAAGAUGCCGGUGAUGUGGGUGUGAGCUCAGAUGAUGAGAAGAGAGCCCAGGCAGCAAGAGGAUCUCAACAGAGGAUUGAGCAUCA: 0.327 ratio
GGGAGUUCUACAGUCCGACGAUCGGCCCUUGACCGUGUGGCCUCUGCCUGGCUGUUUGGGGUCCUGCACGGCUUUCCCACCACCUGCCGCUCUUGUUGACCUGCCUGUUCACCUCAUGAGUGAAGCGUCUGCCUGGCAGUGGGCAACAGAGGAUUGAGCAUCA: 0.157 ratio
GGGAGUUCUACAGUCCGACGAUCGUGGACACACAACAUUUAAUUAAACAAUUAAGGCAGCAUUUUGCUAUGCUCUGAUUGUUCCUCCGACCACAUAUGUUCUUAUGAAGCAGCAUUAUGCAAGGGGAAAAAAGCACUAUGUCUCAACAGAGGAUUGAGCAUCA: 0.375 ratio
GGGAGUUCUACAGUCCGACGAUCUAAAUGCCCUGAGAAAAGCAUAAGAUUAAAAACAAUCCAUGGGCUAUUUGUGUUACUGCUACCGAAAGGUUUUUUAAAAAGCUAUCUUUCAUAUUGAAUUUUUGAAUUCUUAAAAAGCCUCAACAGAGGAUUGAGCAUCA: 0.219 ratio
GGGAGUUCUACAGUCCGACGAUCGCGGAGAAGGACUCCCUGGACCCCUCCUUCACGCACGCCCUGCGCCUGGUGAACCAAGAAACCGAAAAGUUUCAAAAAGGAGAAGGCAAGGAUGAAGAAAAGUACAUCGAUGUGGUGAUUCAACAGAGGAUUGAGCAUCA: 0.16 ratio
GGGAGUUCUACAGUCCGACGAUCGUUAAUCAUAGCUUGGAUUUACAGCCAGUUACUUACUCAGAACCUGCAUUUUGGUGUUCGACCGCAUAUUAUGAAUUAAAUCAGAGGGUUGGAGAAACCUUCCAUGCAUCACAGCCCUCACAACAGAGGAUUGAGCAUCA: 0.445 ratio
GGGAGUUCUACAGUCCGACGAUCCAACUGUCAUUACCCCUUAACUUCCUGGGAACUGUAUAUAGAGAGACAAGACAAGCACUCACCGAUAUGAACACCUUGUUUACUCUGCUCAAGGUAGACACACGGAUUAAAGACAAAGUGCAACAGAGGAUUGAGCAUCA: 0.46 ratio

Block 3 — method: RNA Bind-n-Seq; form: RNA; medium: in vitro; tested at: 365 nM; reference: no-protein control; direction: higher = stronger binding; endpoint: RBNS enrichment (R)
Target: RNA binding protein fox-1 homolog 2, RRM domain, GST-SBP tag (RBFOX2, Homo sapiens, UniProt O43251-10, residues 100-194)
Setting: natural RNA segment, single round, ends assumed
Residues (chain): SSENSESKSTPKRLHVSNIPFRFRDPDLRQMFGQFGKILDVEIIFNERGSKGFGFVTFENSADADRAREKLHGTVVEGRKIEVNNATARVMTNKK
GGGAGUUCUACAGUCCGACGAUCAAACACCCAGAAUCCCAUGUCCUUUGACUUGCAGUGUAGCUAUCUAGAAUGAAACACUUGCCUUGCUAAUCCCAAGUAAGAAGUGACUGGGUGGGGGGUUGCGGGGAGGGUGGAAUUCUCGGGUGCCAA: 0.66
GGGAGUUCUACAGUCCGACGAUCAAACAAGUAGCAUACAUUUUGUAAUUAACAUUGAUAAACACUGUGAUUUUUUUGGUUAAAACUUUUUCAUUGAUCUGAAUUGCUUAAAUUGCAUAUAUUGUAAAAUAGAGUGGAAUUCUCGGGUGCCAA: 0.53
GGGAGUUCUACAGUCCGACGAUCCCUCCAUCCCUUGACGGUUCUGGCCUUCCCAAACUGCUUUUGAUCUUUUGAUUCCUCUUGGGCUGAAGCAGACCAAGUUCCCCCCAGGCACCCCAGUUGUGGGGGAGCCUUGGAAUUCUCGGGUGCCAA: 0.523
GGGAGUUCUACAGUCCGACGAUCAUUCAGUCAAGUGUCUCAUAAAGAUCAGCUCCUCCCUCAGAAUACAAGUUAAUGCAUGUUACUCAGUCGCCCAGUAUGUGAAAGAAGAUAUGAGGGAGACAAAUGAGUUGUGGAAUUCUCGGGUGCCAA: 23.7
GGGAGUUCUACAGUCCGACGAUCAAAACUGUUUAGGUUAUAGUCUAUUGAUACUUUUUAUAUACAAUUUUAUAAAUAUAAAUAUUAUAAUUUUAUAUUAAUGGUACCAAAAAUACAUUUCUUAAGGUUAAAAGUGGAAUUCUCGGGUGCCAA: 1.93
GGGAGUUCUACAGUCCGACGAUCUAUUGCCCUUAAGAGCUUUAAAGAUAGUUUUUUUUACAUGCCUUAUGCAUACAUUCCACUACUGACACUCUCAAGGUAAUAUUAAACAUGAUCUAGGUACUAAGAUAUUCUGGAAUUCUCGGGUGCCAA: 0.393
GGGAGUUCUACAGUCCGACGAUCUCGGGAUGUUUCAGCUCACACAUCCUUGAGUGACUUCCCAUAUGUGUGUGGGGCUGAAGCGGCUUCUUUCCGCUGAACUUUUAUUUCCAUUUCAGCCUCGUGGCUUCUCUUGGAAUUCUCGGGUGCCAA: 0.253
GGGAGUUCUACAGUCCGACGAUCGCUGACAAGAUGAAUGGGCACUGCCUGCCCUUCUAGUGAAAAGGCUUGGCUAUGGCCCUGUGUGACUCCAGGUCCCAGGAACCUUGCCUUCGUCAUCUGUGGAUCCAUCCUGGAAUUCUCGGGUGCCAA: 0.224
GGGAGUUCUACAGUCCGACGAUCGAGUUUUGGAGGACCCCGGUCCCCACAAUGCCAGGCUGCAGGAUAACUGCCAUCCCCUUCUGUGAGUUAUGUACGGGGACUUAGACUGUCCUGUGCAGAGGUGGAGGGCAUGGAAUUCUCGGGUGCCAA: 0.899
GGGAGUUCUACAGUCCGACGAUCAAGAAAAGAUUUGGUUGCCAUAGUCAUAAGCAAUGAUACAUGAAACCAAUGAAAGACAGUACAUGUAAUAAUAUUUUCCUCAGUACAAUUUUGCUGGCCUUAACUGGUAUUGGAAUUCUCGGGUGCCAA: 0.349
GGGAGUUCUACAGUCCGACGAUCUGAGAUCAUGUUUACAGACCUGUUUUGUCAUCCUGCUGCCAAGAAGUUUUUUAAUCACUUGAAUAAAUUGAUAUAAUAAAAGGAGCCACCAGGUGGUGUGUGGAUUCUGAUGGAAUUCUCGGGUGCCAA: 0.287
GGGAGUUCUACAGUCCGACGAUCAAGUCUGGAUCUGGGACCCUUUCCUUCCUUCCCUGGCUUGUAACUCCACCAACCCAUCAGAAGGAGAAGGAAGGAGACUCACCUCUGCCUCAAUGUGAAUCAGACCCUACUGGAAUUCUCGGGUGCCAA: 0.32

Block 4 — method: DHFR PCA, deep sequencing; medium: yeast; with: (+)-ABA 4.8 µM; reference: wild-type fitted maximum; direction: higher = stronger binding; endpoint: relative binding score
Target: ABI1, truncated, D143A, DHFR fusion (Arabidopsis thaliana)
Setting: methotrexate growth selection, single substitutions
Parent: PYL1, truncated, DHFR fusion (Arabidopsis thaliana); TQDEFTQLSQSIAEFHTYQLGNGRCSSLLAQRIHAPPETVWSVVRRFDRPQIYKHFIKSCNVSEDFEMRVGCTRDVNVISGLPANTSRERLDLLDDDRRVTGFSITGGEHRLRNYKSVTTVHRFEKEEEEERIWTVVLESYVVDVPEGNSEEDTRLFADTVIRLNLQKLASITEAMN
R32A: 56.1%
G148A: 17.8%
D153Y: 1.32%
A84S: 23.9%
T101P: -6.93%
I105S: 26.2%
D75C: 71.8%
V40Q: 16.2%
N22T: 75.5%
A170C: 68.3%
D144N: 15.4%
E128P: 74.6%
V136L: 68.2%
T73L: 66.7%
E131I: 65.5%
E152S: 67.1%

For quick reference, copied from above (block 4):
A170C: 68.3%
D75C: 71.8%
R32A: 56.1%
V40Q: 16.2%
E128P: 74.6%
N22T: 75.5%
T101P: -6.93%
G148A: 17.8%
V136L: 68.2%
